# Results collected from several papers.
# Each numbered part is a random draw from the data of one study; scales do not carry over between parts.
# UniProt Q16816, sequence (whole entry, looked up): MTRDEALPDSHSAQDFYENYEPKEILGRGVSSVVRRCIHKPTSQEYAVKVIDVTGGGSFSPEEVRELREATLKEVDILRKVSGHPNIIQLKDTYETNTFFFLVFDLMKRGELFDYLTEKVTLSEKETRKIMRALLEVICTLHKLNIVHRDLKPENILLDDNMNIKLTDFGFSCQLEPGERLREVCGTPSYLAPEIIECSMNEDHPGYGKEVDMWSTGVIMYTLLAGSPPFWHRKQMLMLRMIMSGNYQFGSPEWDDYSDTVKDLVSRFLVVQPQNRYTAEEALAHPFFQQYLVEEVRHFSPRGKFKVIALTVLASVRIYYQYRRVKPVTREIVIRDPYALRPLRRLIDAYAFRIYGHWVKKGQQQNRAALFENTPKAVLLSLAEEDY
# UniProt P08922, sequence (whole entry, looked up): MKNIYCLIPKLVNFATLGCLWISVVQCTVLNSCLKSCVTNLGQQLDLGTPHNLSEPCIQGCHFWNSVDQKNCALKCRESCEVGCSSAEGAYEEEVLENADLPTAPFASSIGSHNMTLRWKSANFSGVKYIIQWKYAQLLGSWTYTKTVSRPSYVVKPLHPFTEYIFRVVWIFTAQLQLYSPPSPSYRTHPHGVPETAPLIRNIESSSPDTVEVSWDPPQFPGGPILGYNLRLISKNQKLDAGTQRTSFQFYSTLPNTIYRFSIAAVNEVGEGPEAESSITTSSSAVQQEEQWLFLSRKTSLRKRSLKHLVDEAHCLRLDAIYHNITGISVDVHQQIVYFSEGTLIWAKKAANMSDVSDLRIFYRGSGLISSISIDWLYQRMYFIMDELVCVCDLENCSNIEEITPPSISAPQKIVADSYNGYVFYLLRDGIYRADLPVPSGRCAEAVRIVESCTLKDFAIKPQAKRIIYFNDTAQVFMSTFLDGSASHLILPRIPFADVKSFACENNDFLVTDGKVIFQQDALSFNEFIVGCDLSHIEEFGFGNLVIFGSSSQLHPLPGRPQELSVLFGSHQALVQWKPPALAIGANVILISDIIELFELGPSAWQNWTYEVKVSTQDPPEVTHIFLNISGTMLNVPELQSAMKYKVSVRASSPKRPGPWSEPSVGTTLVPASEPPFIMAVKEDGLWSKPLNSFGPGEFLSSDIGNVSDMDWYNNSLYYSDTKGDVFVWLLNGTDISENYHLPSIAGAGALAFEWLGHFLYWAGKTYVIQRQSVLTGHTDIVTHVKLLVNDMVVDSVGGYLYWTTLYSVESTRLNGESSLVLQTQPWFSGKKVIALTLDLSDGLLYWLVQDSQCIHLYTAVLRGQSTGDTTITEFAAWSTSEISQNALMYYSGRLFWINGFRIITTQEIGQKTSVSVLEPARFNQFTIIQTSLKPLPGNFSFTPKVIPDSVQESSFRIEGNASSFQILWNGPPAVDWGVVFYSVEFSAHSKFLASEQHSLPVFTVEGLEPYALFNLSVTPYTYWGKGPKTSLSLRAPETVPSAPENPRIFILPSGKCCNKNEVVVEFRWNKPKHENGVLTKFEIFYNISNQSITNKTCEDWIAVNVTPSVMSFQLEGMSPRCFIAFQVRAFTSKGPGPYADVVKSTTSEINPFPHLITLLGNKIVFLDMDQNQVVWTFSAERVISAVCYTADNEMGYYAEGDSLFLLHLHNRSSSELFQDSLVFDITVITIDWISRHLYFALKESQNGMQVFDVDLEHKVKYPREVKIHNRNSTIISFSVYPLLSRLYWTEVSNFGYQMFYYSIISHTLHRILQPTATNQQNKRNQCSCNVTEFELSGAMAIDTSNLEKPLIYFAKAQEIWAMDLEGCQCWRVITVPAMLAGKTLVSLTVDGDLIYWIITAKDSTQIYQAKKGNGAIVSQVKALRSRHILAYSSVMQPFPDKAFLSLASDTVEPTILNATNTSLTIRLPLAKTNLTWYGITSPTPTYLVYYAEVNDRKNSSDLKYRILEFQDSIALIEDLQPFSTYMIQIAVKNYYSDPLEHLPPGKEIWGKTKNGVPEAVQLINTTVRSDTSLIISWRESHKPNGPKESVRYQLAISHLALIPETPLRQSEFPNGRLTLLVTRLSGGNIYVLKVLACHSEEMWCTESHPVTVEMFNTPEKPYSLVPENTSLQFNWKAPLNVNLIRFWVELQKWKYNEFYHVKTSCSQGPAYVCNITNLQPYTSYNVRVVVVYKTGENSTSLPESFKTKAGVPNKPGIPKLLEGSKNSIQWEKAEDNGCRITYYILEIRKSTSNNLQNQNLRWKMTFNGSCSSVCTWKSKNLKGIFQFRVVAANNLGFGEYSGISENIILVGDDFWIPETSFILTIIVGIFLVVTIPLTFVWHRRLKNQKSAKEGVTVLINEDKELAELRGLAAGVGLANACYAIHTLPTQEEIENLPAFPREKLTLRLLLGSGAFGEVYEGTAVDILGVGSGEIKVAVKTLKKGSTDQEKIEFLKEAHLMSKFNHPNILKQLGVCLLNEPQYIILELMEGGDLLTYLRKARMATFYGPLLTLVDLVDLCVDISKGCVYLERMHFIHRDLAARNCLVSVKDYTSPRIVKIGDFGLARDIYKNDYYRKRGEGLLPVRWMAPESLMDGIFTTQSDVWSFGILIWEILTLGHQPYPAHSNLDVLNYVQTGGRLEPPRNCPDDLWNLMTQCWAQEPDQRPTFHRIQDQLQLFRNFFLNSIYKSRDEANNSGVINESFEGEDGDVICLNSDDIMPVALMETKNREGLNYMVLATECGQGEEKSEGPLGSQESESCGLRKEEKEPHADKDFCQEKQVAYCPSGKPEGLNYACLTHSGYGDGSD
# UniProt P06239, sequence (whole entry, looked up): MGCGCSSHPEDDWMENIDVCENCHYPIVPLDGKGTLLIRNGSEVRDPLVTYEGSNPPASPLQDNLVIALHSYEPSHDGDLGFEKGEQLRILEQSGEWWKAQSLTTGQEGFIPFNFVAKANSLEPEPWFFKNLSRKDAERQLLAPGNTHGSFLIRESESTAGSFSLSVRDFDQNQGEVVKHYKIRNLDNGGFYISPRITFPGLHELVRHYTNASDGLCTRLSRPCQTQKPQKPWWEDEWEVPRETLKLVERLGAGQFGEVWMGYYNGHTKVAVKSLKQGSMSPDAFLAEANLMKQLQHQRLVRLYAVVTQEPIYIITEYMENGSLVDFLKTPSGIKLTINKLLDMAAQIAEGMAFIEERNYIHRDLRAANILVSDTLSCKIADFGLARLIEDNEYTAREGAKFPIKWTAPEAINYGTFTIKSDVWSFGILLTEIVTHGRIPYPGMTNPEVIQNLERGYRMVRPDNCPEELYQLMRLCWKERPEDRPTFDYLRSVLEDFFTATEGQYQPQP
# UniProt Q08881, sequence (whole entry, looked up): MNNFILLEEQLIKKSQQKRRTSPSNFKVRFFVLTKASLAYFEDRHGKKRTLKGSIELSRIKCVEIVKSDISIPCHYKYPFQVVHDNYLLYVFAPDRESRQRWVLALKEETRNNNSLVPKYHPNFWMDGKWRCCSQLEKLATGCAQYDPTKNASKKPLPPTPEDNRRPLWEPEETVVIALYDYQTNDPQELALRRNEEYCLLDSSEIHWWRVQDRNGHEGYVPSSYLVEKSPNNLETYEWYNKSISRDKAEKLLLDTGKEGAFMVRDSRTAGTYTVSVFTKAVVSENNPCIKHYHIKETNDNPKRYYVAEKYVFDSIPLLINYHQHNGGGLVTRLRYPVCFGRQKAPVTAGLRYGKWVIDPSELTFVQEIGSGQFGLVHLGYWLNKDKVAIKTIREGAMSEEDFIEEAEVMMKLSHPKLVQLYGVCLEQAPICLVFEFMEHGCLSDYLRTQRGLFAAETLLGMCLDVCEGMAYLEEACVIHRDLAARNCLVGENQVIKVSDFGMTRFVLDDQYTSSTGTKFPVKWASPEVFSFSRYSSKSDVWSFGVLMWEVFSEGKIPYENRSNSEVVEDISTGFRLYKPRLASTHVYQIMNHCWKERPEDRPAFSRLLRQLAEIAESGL
# UniProt O75914, sequence (whole entry, looked up): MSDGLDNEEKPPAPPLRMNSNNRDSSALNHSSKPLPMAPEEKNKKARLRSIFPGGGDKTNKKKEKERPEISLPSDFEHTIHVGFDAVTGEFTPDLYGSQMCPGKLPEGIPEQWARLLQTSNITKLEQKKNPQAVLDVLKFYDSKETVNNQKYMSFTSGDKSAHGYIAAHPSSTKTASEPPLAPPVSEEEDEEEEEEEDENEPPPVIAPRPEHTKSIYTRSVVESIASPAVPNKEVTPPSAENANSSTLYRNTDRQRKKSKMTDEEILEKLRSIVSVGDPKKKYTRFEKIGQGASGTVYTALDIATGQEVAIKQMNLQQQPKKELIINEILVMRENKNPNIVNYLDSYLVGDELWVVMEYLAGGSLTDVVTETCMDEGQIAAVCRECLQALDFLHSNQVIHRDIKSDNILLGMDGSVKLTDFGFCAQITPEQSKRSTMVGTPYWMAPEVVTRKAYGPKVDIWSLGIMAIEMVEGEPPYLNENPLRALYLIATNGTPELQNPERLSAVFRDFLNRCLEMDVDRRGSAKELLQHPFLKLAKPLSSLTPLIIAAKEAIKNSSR

# Series 1
# Species: mouse
# Sample: microsomes or S9
# Tested at: 2 µM
# Time: 0.5 h
Structure (SMILES),remaining compound [%]
COC1CCN(c2ncnc3c2c(Br)cn3S(=O)(=O)c2ccc(C)cc2)CC1,< 1
COc1cc(=O)[nH]cc1C(=O)N1CCC(C)(C)C(c2ccccc2)C1 (centres unmarked),38.8
O=S(=O)(CCC1Cc2ccccc2C1)N1CCN(c2cccc(O)c2)CC1,3.59
c1cc2ccn(-c3ccc4ccnc(N5CCOCC5)c4c3)c2cn1,1.48
CC(C)NS(=O)(=O)c1ccc2c(c1)nc(-c1ccncc1)n2C(C)C,0.226
COc1ccc(Cl)c(OC)c1C1=NOC(C)(C(=O)Nc2ccccn2)C1 (centres unmarked),0.754
O=C1N[C@@H](Cc2c[nH]c3ccccc23)C(=O)N2CCC[C@@H]12,93.2
Cc1noc2c1C(CC(C)C)C1=C(O)CC(C)(C)CC1=N2 (centres unmarked),17.8
CS(=O)(=O)c1ccc(Nc2ccc3sc(C(=O)O)cc3c2)c(F)c1,> 99
Cn1c(=O)c2c(nc(C(=O)N3CC[C@H](NC(=O)OC(C)(C)C)C3)n2Cc2ccccc2)n(C)c1=O,1.32
O=[N+]([O-])c1ccc(CNC2=NS(=O)(=O)c3cc(Cl)ccc32)cc1,27.7
O=C(c1ccc2cccnn12)N1C[C@@H](Cc2ccccc2)[C@H](O)C1,2.78
Cn1cc(Br)c(C(=O)NCCCN2CCCC2=O)n1,> 99
CC1(C(=O)NC2CCCC2)Cn2c(cc3ccsc32)C(=O)N1c1ccc2c(c1)OCCO2 (centres unmarked),0.0918
Cc1cccc(NC(=O)c2oc3ccccc3c2NC(=O)c2cc(-c3ccc4c(c3)OCCO4)on2)c1,46.1

# Series 2
# SMILES: C[C@H](c1ccc(F)cc1)N(Cc1cccc(C(=O)O)c1)C(=O)c1cnc2ccccc2c1
# Effect on: cell-free assay
# Method: competition with immobilised ligand
# Tested at: 1 µM
target,remaining binding [%]
"CAMKK1 (Homo sapiens, UniProt Q8N5S9)",100
"TIE1 (Homo sapiens, UniProt P35590)",93
"LCK (Homo sapiens, UniProt P06239)",100
"PIM2 (Homo sapiens, UniProt Q9P1W9)",100
"PAK3 (Homo sapiens, UniProt O75914)",96
"BTK (Homo sapiens, UniProt Q06187)",95
"RET (Homo sapiens, UniProt P07949, V804L)",85
"PHKG2 (Homo sapiens, UniProt P15735)",100
"PIM3 (Homo sapiens, UniProt Q86V86)",100
"PHKG1 (Homo sapiens, UniProt Q16816)",88
"CLK3 (Homo sapiens, UniProt P49761)",100
"MINK1 (Homo sapiens, UniProt Q8N4C8)",100
"PIK3CG (Homo sapiens, UniProt P48736)",100
"Tyrosine-protein kinase ABL1, non-phosphorylated (ABL1, Homo sapiens, UniProt P00519, Q252H)",90
"PAK4 (Homo sapiens, UniProt O96013)",100
"ITK (Homo sapiens, UniProt Q08881)",84
"ROS1 (Homo sapiens, UniProt P08922)",100
"CSK (Homo sapiens, UniProt P41240)",100
"TSSK1B (Homo sapiens, UniProt Q9BXA7)",91
"CDK16 (Homo sapiens, UniProt Q00536)",100
"NTRK1 (Homo sapiens, UniProt P04629)",100
"AKT3 (Homo sapiens, UniProt Q9Y243)",100
"MAPK10 (Homo sapiens, UniProt P53779)",82
"PIK3CA (Homo sapiens, UniProt P42336)",100
"PRKD1 (Homo sapiens, UniProt Q15139)",100

# Series 3
# Target: Cyclin-dependent kinase 4, with cyclin D1 (CDK4, Homo sapiens, UniProt P11802)
# UniProt P11802, sequence (whole entry, looked up): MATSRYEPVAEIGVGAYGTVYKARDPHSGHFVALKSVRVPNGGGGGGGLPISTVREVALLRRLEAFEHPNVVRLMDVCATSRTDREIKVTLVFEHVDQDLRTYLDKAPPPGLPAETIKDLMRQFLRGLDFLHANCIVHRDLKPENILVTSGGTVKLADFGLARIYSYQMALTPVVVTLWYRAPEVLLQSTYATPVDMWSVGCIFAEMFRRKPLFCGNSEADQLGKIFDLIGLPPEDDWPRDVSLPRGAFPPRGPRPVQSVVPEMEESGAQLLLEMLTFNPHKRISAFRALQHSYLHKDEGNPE
# Effect on: enzyme activity
# Mode: inhibitor
# Tested at: 0.5 µM
# Baseline: control
SMILES,remaining activity [%]
Cc1ccc(NC(=O)c2ccc(CN3CCN(C)CC3)cc2)cc1Nc1nccc(-c2cccnc2)n1,97.5
O=C1NC(=O)/C(=C/c2ccc3nccnc3c2)S1,94.4
Cn1cc(/C=C2\C(=O)Nc3ccc(S(N)(=O)=O)cc32)c2ccccc21,106
COc1cc2ncnc(Nc3ccc(OCc4ccccc4)cc3)c2cc1OC,99.2
C[S+]([O-])c1ccc(-c2nc(-c3ccncc3)c(-c3ccc(F)cc3)[nH]2)cc1 (centres unmarked),105
COc1cc2ncc(-c3ccccc3)nc2cc1OC,103
Cn1cnc2cc3c(Nc4cccc(Br)c4)ncnc3cc21,84
CC(=O)O/N=C1/C(c2c(O)[nH]c3cc(Br)ccc23)=Nc2ccccc21,73.3
O=c1cc(N2CCOCC2)oc2c1ccc1ccccc12,95.6
CCOc1cc2ncnc(Nc3cccc(Br)c3)c2cc1OCC,94.2
O=C(Nc1ccc(Cl)cc1)c1ccccc1NCc1ccncc1,104
Nc1[nH]nc2nnc(-c3c(-c4ccccc4)nn4ccccc34)cc12,89.2
Cc1nc(Nc2ncc(C(=O)Nc3c(C)cccc3Cl)s2)cc(N2CCN(CCO)CC2)n1,94.4
CCN1/C(=C/C(C)=O)Sc2ccc(OC)cc21,92.1
COc1cc2ncnc(N3CCN(C(=O)Nc4ccc(Oc5ccccc5)cc4)CC3)c2cc1OC,101
CN(C)CCCn1cc(C2=C(c3c[nH]c4ccccc34)C(=O)NC2=O)c2ccccc21,60.7
CCC(=O)Nc1ccc2ncnc(Nc3cccc(Br)c3)c2c1,101
COc1ccc(Cl)cc1NC(=O)Nc1cc(C)nc2ccccc12,98.8
COc1ccc(-c2cnc3c(-c4ccsc4)cnn3c2)cc1,69.8
CC(C)[C@H](CO)Nc1nc(Nc2cccc(Cl)c2)c2ncn(C(C)C)c2n1,83.4

# Series 4
# Cell line: HaCaT
# Tested at: 100 µM
# Time: 36 h
Compound,viability
COc1cc([C@@H]2c3cc4c(cc3[C@@H](O[C@@H]3O[C@@H]5CO[C@@H](c6cccs6)O[C@H]5[C@H](O)[C@H]3O)[C@H]3COC(=O)[C@H]23)OCO4)cc(OC)c1O,15.3%
CC[C@H](C)C(=O)O[C@H]1CCC=C2C=C[C@H](C)[C@H](CC[C@@H]3C[C@@H](O)CC(=O)O3)[C@H]21,6.18%
CN(Cc1cc(Br)cc(Br)c1N)C1CCCCC1,35.9%
CCCCCCCC(=O)N[C@H](CN1CCCC1)[C@H](O)c1ccc2c(c1)OCCO2,12.8%
Cc1ccc(C)c(OCCCC(C)(C)C(=O)O)c1,98.9%
Cn1cc[nH]c1=S,92.7%
CC(N)[C@]12C[C@H]3C[C@H](C[C@H](C3)C1)C2 (some centres unmarked),56.8%
C[C@]12C=CC(=O)C=C1CC[C@@H]1[C@@H]2[C@@H](O)C[C@@]2(C)[C@H]1CC[C@]2(O)C(=O)COP(=O)(O)O,89%
CC(=O)OCC1=C(C(=O)O)N2C(=O)[C@@H](NC(=O)Cc3cccs3)[C@H]2SC1,108%
COCCOC(=O)C1=C(C)NC(C)=C(C(=O)OC/C=C/c2ccccc2)C1c1cccc([N+](=O)[O-])c1 (centres unmarked),45.4%
N#Cc1ccc2[nH]cc(CCCCN3CCN(c4ccc5oc(C(N)=O)cc5c4)CC3)c2c1,5.65%
O=C(O[C@H]1CN2CCC1CC2)N1CCc2ccccc2[C@@H]1c1ccccc1,5.37%
N=C(N)NC(=O)Cc1c(Cl)cccc1Cl,91.5%
CCc1oc2ccccc2c1C(=O)c1cc(Br)c(O)c(Br)c1,47.8%
O=C(O)C1=CO[C@@H](O[C@@H]2O[C@H](CO)[C@@H](O)[C@H](O)[C@H]2O)[C@@H]2C(CO)=CC[C@H]12,93.1%
O=C(NC(Cc1cc(=O)[nH]c2ccccc12)C(=O)O)c1ccc(Cl)cc1 (centres unmarked),97.7%
Cc1cccc(C)c1OCC(=O)N[C@@H](Cc1ccccc1)[C@@H](O)C[C@H](Cc1ccccc1)NC(=O)[C@H](C(C)C)N1CCCNC1=O,15.7%
O=C(CCCN1CC=C(n2c(=O)[nH]c3ccccc32)CC1)c1ccc(F)cc1,7.24%
O=C(O)c1cc(O)c2c(c1)[C@H]([C@H]1c3cc(C(=O)O)cc(O)c3C(=O)c3c(O[C@@H]4O[C@H](CO)[C@@H](O)[C@H](O)[C@H]4O)cccc31)c1cccc(O[C@@H]3O[C@H](CO)[C@@H](O)[C@H](O)[C@H]3O)c1C2=O,80.6%
CC(=O)CCCCn1c(=O)c2c(ncn2C)n(C)c1=O,56.1%
